{"data": "Measured values from different studies", "UCHL1": "Ubiquitin carboxyl-terminal hydrolase isozyme L1 (UCHL1, Homo sapiens, UniProt P09936)", "note": "Protocols differ between the studies behind these lines. ± gives the spread as reported.", "UniProt P09936, sequence (whole entry, looked up)": "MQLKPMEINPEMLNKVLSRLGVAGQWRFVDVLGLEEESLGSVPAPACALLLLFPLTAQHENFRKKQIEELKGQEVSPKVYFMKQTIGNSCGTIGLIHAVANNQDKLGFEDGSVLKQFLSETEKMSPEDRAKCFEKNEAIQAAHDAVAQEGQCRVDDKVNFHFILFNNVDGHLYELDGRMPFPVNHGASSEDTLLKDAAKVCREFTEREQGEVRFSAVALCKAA"}
{"Structure (SMILES)": "Nc1nc(-c2ccccc2)nc2[nH]nc(Nc3ccc(C(F)(F)F)cc3)c12", "tested on": "coxsackievirus B3", "system": "31-1-93, NMRI mice, CVB3 chronic myocarditis", "conditions": "oral, 100 mg/kg twice daily, day 24, dosed days 1 to 7, score scale 0 to 7", "scale": "direction not given", "quantity": "clinical score", "result": 0.11}
{"Structure (SMILES)": "OC(CCN1CCCCC1)(c1ccccc1)C1CC2C=CC1C2 (stereo not drawn)", "assay": "resting-state EEG", "system": "healthy elderly humans", "conditions": "oral, 2 mg, eyes closed, LS mean", "quantity": "EEG Alpha2-power Pz-O2", "result": "4.6 µV²"}
{"Structure (SMILES)": "N#Cc1ccc2c(-c3ccncc3)c(-c3ccc(F)cc3)nn2c1", "assay": "kinase binding, competitor, MIB/MS competition, measured: YAK1", "system": "Candida albicans cell lysate", "conditions": "10 µM", "scale": "reference: DMSO", "quantity": "log2 fold change", "result": -0.0986}
{"Structure (SMILES)": "OC[C@H]1O[C@@H]2O[C@H]3[C@H](O)[C@@H](O)[C@@H](O[C@H]4[C@H](O)[C@@H](O)[C@@H](O[C@H]5[C@H](O)[C@@H](O)[C@@H](O[C@H]6[C@H](O)[C@@H](O)[C@@H](O[C@H]7[C@H](O)[C@@H](O)[C@@H](O[C@H]8[C@H](O)[C@@H](O)[C@@H](O[C@H]1[C@H](O)[C@H]2O)O[C@@H]8CO)O[C@@H]7CO)O[C@@H]6CO)O[C@@H]5CO)O[C@@H]4CO)O[C@@H]3CO", "tested on": "LuxR", "assay": "Escherichia coli sensor", "conditions": "4 µM", "scale": "higher = stronger induction", "quantity": "bioluminescence induction", "result": "879 ± 50 RLU"}
{"Structure (SMILES)": "COc1ccc(C=O)cc1OS(=O)(=O)c1ccc(NC(C)=O)cc1", "tested on": "UCHL1", "assay": "covalent, intact protein LC-MS", "conditions": "12.5 µM", "quantity": "labelling", "result": "13.2%"}
{"Structure (SMILES)": "CCN1CCS/C1=C\\C=C\\C1=[N+](CC)CCS1", "tested on": "Trypanosoma cruzi", "assay": "reporter translation, Renilla luciferase mRNA translation", "system": "cell-free extract", "conditions": "40 µM", "scale": "reference: DMSO", "quantity": "inhibition", "result": "10.6%"}
{"Structure (SMILES)": "COc1ccc(C(=O)C#Cc2ccc(F)c(F)c2)cc1", "tested on": "Pseudomonas aeruginosa", "assay": "static biofilm", "system": "PA14", "conditions": "10 µM, 24 h", "scale": "reference: DMSO", "quantity": "biofilm formation", "result": "88%"}
{"Structure (SMILES)": "O=C(c1ccc(Nc2nccc(-c3cc4ccccc4s3)n2)cc1)N1CCC(N2CCCC2)CC1", "tested on": "Toxoplasma gondii", "assay": "parasite growth", "system": "HFF, bradyzoite, alkaline-induced", "quantity": "EC90", "result": "12.2 µM"}
{"Structure (SMILES)": "COc1ccccc1/C=C/CN1CCCC(CCC(=O)NCc2ccccc2F)C1 (stereo not drawn)", "tested on": "Trypanosoma cruzi", "assay": "reporter translation, Renilla luciferase mRNA translation", "system": "cell-free extract", "conditions": "40 µM", "scale": "reference: DMSO", "quantity": "inhibition", "result": "-1.1%"}
{"Structure (SMILES)": "CC(C)(C)c1cc(/C=C(\\C#N)C(N)=S)cc(C(C)(C)C)c1O", "tested on": "Toxoplasma gondii", "assay": "parasite growth", "system": "HFF, bradyzoite, alkaline-induced", "quantity": "EC90", "result": "182 µM"}
{"Structure (SMILES)": "CNC(=O)c1cc(Oc2ccc(NC(=O)Nc3ccc(Cl)c(C(F)(F)F)c3)cc2)ccn1", "tested on": "CaMKII (rat)", "assay": "kinase activity, inhibitor", "conditions": "0.3 µM", "quantity": "inhibition", "result": "4%"}
{"Structure (SMILES)": "Cn1cc(-c2ccc(-c3cncc(Cl)c3N3CCC4(CCNC4=O)CC3)cc2)cn1", "tested on": "COLO 205", "assay": "gene expression, microarray, measured: CARD6 mRNA", "conditions": "concentration not given, 2 h", "scale": "reference: untreated cells", "quantity": "log2 fold change", "result": 1.9}
{"Structure (SMILES)": "c1coc(-c2n[nH]cc2-c2ccnc3ccccc23)c1", "tested on": "MKK2 (Candida albicans)", "assay": "kinase binding, MIB/MS competition", "system": "Candida albicans lysate", "conditions": "1 µM", "scale": "reference: DMSO", "quantity": "log2 fold change", "result": -0.15}
{"Structure (SMILES)": "N#CC(=Cc1ccccc1)C(=O)Nc1ccccc1F", "tested on": "UCHL1", "assay": "covalent, intact protein LC-MS", "conditions": "12.5 µM", "quantity": "labelling", "result": "10.8%"}
{"Structure (SMILES)": "O=C(C#Cc1ccc(F)c(F)c1)c1ccccc1Cl", "tested on": "Pseudomonas aeruginosa", "assay": "RT-qPCR, measured: rhlA", "system": "biofilm cells", "conditions": "10 µM, 24 h", "scale": "reference: untreated", "quantity": "mRNA level", "result": "16%"}
{"Structure (SMILES)": "Clc1ccc(C(c2ccc(Cl)cc2)n2cc[n+](CC(OCc3ccc(Cl)cc3Cl)c3ccc(Cl)cc3Cl)c2)cc1 (stereo not drawn)", "tested on": "Toxoplasma gondii", "assay": "parasite growth", "system": "HFF, bradyzoite, glutamine-induced", "quantity": "EC50", "result": "2.71 µM"}
{"Structure (SMILES)": "COc1ccccc1C(=O)C#Cc1ccc(F)c(F)c1", "tested on": "Pseudomonas aeruginosa", "assay": "static biofilm", "system": "PA14", "conditions": "10 µM, 24 h, static", "scale": "reference: DMSO", "quantity": "biofilm formation", "result": "78%"}
{"Structure (SMILES)": "OC(CCN1CCCCC1)(c1ccccc1)C1CC2C=CC1C2 (stereo not drawn)", "tested on": "Toxoplasma gondii", "assay": "parasite growth, luciferase reporter", "system": "HFF, tachyzoite", "conditions": "72 h", "quantity": "EC50", "result": "26.9 µM"}
{"Structure (SMILES)": "CC(C)NCC(O)c1ccc(O)c(O)c1 (stereo not drawn)", "system": "ventricular cardiomyocytes, C57BL/6 mouse", "conditions": "dose not given, 0.532 s", "quantity": "sarcomere length", "result": "1.49 µm"}
{"Structure (SMILES)": "C[C@H](Oc1ccc(Br)cc1-c1ccon1)C(=O)O", "assay": "first response peak", "system": "human, tibialis anterior muscle", "conditions": "50 mg, 15 Hz, single ascending dose", "quantity": "difference from placebo", "result": "5.9%"}
{"Structure (SMILES)": "COc1cc(C#CC(=O)c2ccccc2)ccc1O", "tested on": "Pseudomonas aeruginosa", "assay": "RT-qPCR, measured: phzC1", "system": "biofilm cells", "conditions": "10 µM, 24 h", "scale": "reference: untreated", "quantity": "mRNA level", "result": "34%"}
{"Structure (SMILES)": "O=C1c2ccccc2C(=O)c2c(NCCc3ccc(O)cc3)ccc(NCCc3ccc(O)cc3)c21", "tested on": "Toxoplasma gondii", "assay": "parasite growth", "system": "HFF, bradyzoite, alkaline-induced", "quantity": "EC50", "result": "0.941 µM"}
{"Structure (SMILES)": "O=C(O)CNC(=O)Cc1ccccc1", "system": "ventricular cardiomyocytes, C57BL/6 mouse", "conditions": "dose not given, 0.22 s", "quantity": "sarcomere length", "result": "1.63 µm"}
{"Structure (SMILES)": "O=C(C#Cc1ccc(F)c(F)c1)c1cccc(Cl)c1", "tested on": "Pseudomonas aeruginosa", "assay": "RT-qPCR, measured: rhlA", "system": "biofilm cells", "conditions": "10 µM, 24 h", "scale": "reference: untreated", "quantity": "mRNA level", "result": "51%"}
{"Structure (SMILES)": "NC(=O)c1cnc2[nH]ccc2c1N[C@@H]1[C@@H]2CC3C[C@H]1C[C@@](O)(C3)C2", "assay": "CD4+ memory T cells, flow cytometry", "system": "Japanese humans, peripheral blood", "conditions": "60 mg single dose", "scale": "reference: baseline", "quantity": "percent change", "result": "0.37%"}
{"Structure (SMILES)": "COc1cccc(C(=O)C#Cc2ccc(O)c(OC)c2)c1", "tested on": "Pseudomonas aeruginosa", "assay": "static biofilm", "system": "PA14", "conditions": "10 µM, 24 h", "scale": "reference: DMSO", "quantity": "biofilm formation", "result": "65%"}
{"Structure (SMILES)": "O=C(Nc1ccncc1)c1cc([N+](=O)[O-])ccc1Cl", "tested on": "Toxoplasma gondii", "assay": "bradyzoite growth", "conditions": "glutamine-induced bradyzoites, glucose-free medium", "quantity": "EC50", "result": "0.6 µM"}
{"Structure (SMILES)": "CCC(C)C(=O)C#Cc1ccc(O)c(OC)c1 (stereo not drawn)", "tested on": "Pseudomonas aeruginosa", "assay": "static biofilm", "system": "PA14", "conditions": "10 µM, 24 h", "scale": "reference: DMSO", "quantity": "biofilm formation", "result": "80%"}
{"Structure (SMILES)": "Cc1ccc(S(=O)(=O)/C=C/C#N)cc1", "tested on": "Toxoplasma gondii", "assay": "parasite growth", "system": "HFF, bradyzoite, glutamine-induced", "quantity": "EC90", "result": "6.71 µM"}
{"Structure (SMILES)": "COc1ccc(C(=O)C#Cc2ccc(O)c(OC)c2)cc1", "tested on": "Pseudomonas aeruginosa", "assay": "static biofilm", "system": "PA14", "conditions": "10 µM, 24 h, static", "scale": "reference: DMSO", "quantity": "biofilm formation", "result": "73%"}
{"Structure (SMILES)": "O=C1C(O)=C([C@H]2CC[C@H](c3ccc(Cl)cc3)CC2)C(=O)c2ccccc21", "tested on": "Toxoplasma gondii", "assay": "tachyzoite growth, luciferase", "system": "ME49-Fluc, type II", "quantity": "EC50", "result": "0.1 µM"}
{"Structure (SMILES)": "Oc1ccccc1-c1n[nH]cc1-c1ccnc2ccccc12", "tested on": "YAK1 (Candida albicans)", "assay": "kinase binding, MIB/MS competition", "system": "Candida albicans lysate", "conditions": "10 µM", "scale": "reference: DMSO", "quantity": "log2 fold change", "result": 0.27}
{"Structure (SMILES)": "C[C@H]1C[C@H]2CSC(N)=N[C@@]2(c2nc(NC(=O)c3ccc(OC(F)F)cn3)cs2)CO1", "assay": "measured: Aβx-40", "system": "healthy adults, plasma", "conditions": "275 mg once daily, day 14", "scale": "reference: placebo", "quantity": "percent change from baseline", "result": "-71.8%"}
{"note": "A few entries again:"}
{"Structure (SMILES)": "OC[C@H]1O[C@@H]2O[C@H]3[C@H](O)[C@@H](O)[C@@H](O[C@H]4[C@H](O)[C@@H](O)[C@@H](O[C@H]5[C@H](O)[C@@H](O)[C@@H](O[C@H]6[C@H](O)[C@@H](O)[C@@H](O[C@H]7[C@H](O)[C@@H](O)[C@@H](O[C@H]8[C@H](O)[C@@H](O)[C@@H](O[C@H]1[C@H](O)[C@H]2O)O[C@@H]8CO)O[C@@H]7CO)O[C@@H]6CO)O[C@@H]5CO)O[C@@H]4CO)O[C@@H]3CO", "tested on": "LuxR", "assay": "Escherichia coli sensor", "conditions": "4 µM", "scale": "higher = stronger induction", "quantity": "bioluminescence induction", "result": "879 ± 50 RLU"}
{"Structure (SMILES)": "COc1ccc(C=O)cc1OS(=O)(=O)c1ccc(NC(C)=O)cc1", "tested on": "UCHL1", "assay": "covalent, intact protein LC-MS", "conditions": "12.5 µM", "quantity": "labelling", "result": "13.2%"}
